Results gathered from unrelated publications.
± gives the spread as reported.

| SMILES | test | test system | setting | scale | quantity | value |
| --- | --- | --- | --- | --- | --- | --- |
| COc1cc(OC)cc(C2=C3C(C)=C(I)C(C)=[N+]3[B-](F)(F)n3c(/C=C/c4c[nH]c5ccc([N+](=O)[O-])cc45)c(I)c(C)c32)c1 |  | dichloromethane |  |  | Stokes shift | 629 cm⁻¹ |
| CCCC(CCC)NC(=O)c1ccc(OS(=O)(=O)O)c(OC)c1 | LC-MS | Sprague-Dawley rats, pooled sexes, plasma | oral, 200 mg/kg of parent drug, 1 h | reference: total peak area | metabolite peak area | 1.72% |
| CC[C@@H](C)N([11CH3])C(=O)c1nc(-c2ccc(Cl)cc2)c2ccccc2n1 |  | male rhesus monkey, plasma | intravenous, baseline |  | time to 50% parent radioligand | 69.3 min |
| CC(=O)[CH](C(C)=O)[Pt-2]1([S+](C)C)[O]C(C)=CC(C)=[O+]1 (stereo not drawn) |  | rat, blood | intravenous, 20 mg/kg, single dose |  | ALT | 28.6 ± 5.6 U/L |
| CCCC[C@H](NC(=O)[C@H](CC(C)C)N(C)C(=O)CNC(=O)[C@@H](NC(=O)[C@H](Cc1ccccc1)NC(=O)[C@H](CCCCN)NC(=O)[C@@H](N)CC(=O)O)C(C)C)C(N)=O |  | anaesthetised Sinclair minipig | sublingual, 5 mg/kg, lyophilised tablet | reference: baseline | mean arterial pressure change | -1.25 ± 3.65% |
| NC(=O)[C@@H](CCCCNC(=O)CNC(=O)CCC(=O)NCCc1c[nH]cn1)NC(=O)[C@@H](CCC(=O)O)NC(=O)[C@@H](CCCCNC(=O)CNC(=O)CCC(=O)NCCc1c[nH]cn1)NC(=O)[C@@H](Cc1ccc(O)cc1)NC(=O)CN1CCN(CC(=O)O)CCN(CC(=O)O)CCN(CC(=O)O)CC1 [indium-111 labelled] | SPECT | human CEACAM5 tumour patients | dose not given, 24 h, 25 µg IMP288, added: TF2 75 mg, 1 day interval |  | muscle activity concentration | 0.21 %ID/kg |
| Cc1ccc(OCC(=O)O)cc1 |  | Sprague-Dawley rat, female, plasma | oral gavage, 100 mg/kg of parent drug |  | AUC(0-last) | 74200 ± 30700 ng·h/mL |
| Cn1c(=O)oc2ccc(-c3ccc(CC(C#N)NC(=O)C4CNCCCO4)c(F)c3)cc21 (stereo not drawn) | refers to: blood triglycerides increased | human volunteers | oral, dose not given |  | treatment-emergent adverse event incidence | 37% |
| CCc1cc(Nc2nc(-c3ccc(-n4cnc(C)c4)c(F)c3)cs2)c(C)cc1C |  | human, both sexes, plasma | oral, 100 mg once daily, day 14, multiple dose, geometric mean |  | apparent terminal volume (Vz/F) | 392000 mL |
| CCC1=C(CC)C2=[N+]3C1=Cc1c(CC)c(CC)c4[n]1[Ir-3]31([C]#[N+]c3ccc(OC)cc3)([C]#[N+]c3ccc(OC)cc3)[n]3c(c(CC)c(CC)c3=CC3=[N+]1C(=C4)C(CC)=C3CC)=C2.F[B-](F)(F)F |  | DMSO | concentration not given |  | DMSO-substituted fraction | ~8% |
| CC(C)(C)NCC(SS(=O)(=O)O)c1ccccc1 (stereo not drawn) |  | Swiss Webster mouse, female, plasma | intravenous, 15 mg/kg, AUC to last time point |  | initial volume of distribution | 0.403 L/kg |
| CCC(=O)N[C@@H](C)C(=O)OCC(=O)N[C@@H](C)C(=O)O |  | water | pH 4, 65 °C |  | depolymerization half-life | 94 h |
| COc1cc(NC(C)=O)c2c(c1O)-c1c(OC)c(OC)cc3c1C(C2)N(C)CC3 (stereo not drawn) |  | rat lung homogenate | 0.5 µg/mL, time not given, three freeze-thaw cycles |  | remaining compound | 104 ± 2.6% |
| CCCC(CCC)NC(=O)c1ccc(O)c(O)c1 | LC-MS | Sprague-Dawley rats, pooled sexes, plasma | oral, 200 mg/kg of parent drug, 1 h | reference: total peak area | metabolite peak area | 0.99% |
| CC(C)c1cnc(-c2cc(Cl)ccc2F)cc1Nc1ccncc1C(=O)NC(CO)CO | refers to: Myalgia | solid tumour patients | oral, dose not given, phase I monotherapy |  | treatment-related adverse events | 7.1% |
| C#CCOc1ccc(/C=C2\SC(=O)N(CC(=O)NCc3ccccc3)C2=O)cc1 | inverse Kirkwood-Buff integrals | binary solvent mixture | concentration not given, 298.15 K, mole fraction x1 0.40 |  | correlation volume | 3510 cm³/mol |
| NC[C@@H](C(=O)Nc1ccc(-c2cn[nH]c2)cc1)c1ccccc1 | metabolic stability | monkey, liver microsomes |  |  | microsomal CLint | 4.21 µL/min/mg |
| CCCCCCCCCCCCCCOc1c(O)cc(C(=O)O[C@@H]2Cc3c(O)cc(O)cc3O[C@@H]2c2cc(O)c(O)c(O)c2)cc1O | UV-Vis | PBS | 0.02 mg/mL, 5 h, pH 7.4 |  | degradation | 20.5 ± 0.93% |
| Nc1ncnc2c1nc(-n1nnc3c1CCC1C(CO)C1CC3)n2C1OC(CO)C(O)C1O (mixture of isomers) | fluorescence lifetime | methanol |  |  | fractional contribution τ3 | 0.07% |
| CCOC(=O)CCC(=O)Oc1ccc(/C=C/C(=O)/C=C(O)/C=C/c2ccc(OC(=O)CCC(=O)OCC)c(OC)c2)cc1OC |  | human plasma | 1.5 µM | reference: human plasma over buffer pH 7.4 | hydrolysis rate ratio | 100 |
| Oc1cc2nc(c1)CNCCCNCCCNCCCNCCCNCCCNC2 | potentiometric titration | 0.15 M NaClO4 | 298.1 K, H5L5+ + H+ to H6L6+ |  | log K | 5.09 |
| CCCCCCCC(=O)OC[C@H](NC(=O)[C@H](CO)NC(=O)CN)C(=O)N[C@@H](Cc1ccccc1)C(=O)N[C@@H](CC(C)C)C(=O)N[C@@H](CO)C(=O)N1CCC[C@H]1C(=O)N[C@@H](CCC(=O)O)C(=O)N[C@@H](Cc1cnc[nH]1)C(=O)N[C@@H](CCC(N)=O)C(=O)N[C@@H](CCCNC(=N)N)C(=O)N[C@H](C(=O)N[C@@H](CCC(N)=O)C(=O)N[C@@H](CCC(N)=O)C(=O)N[C@@H](CCCNC(=N)N)C(=O)N[C@@H](CCCCN)C(=O)N[C@@H](CCC(=O)O)C(=O)N[C@@H](CO)C(=O)N[C@@H](CCCCN)C(=O)N[C@@H](CCCCN)C(=O)N1CCC[C@H]1C(=O)N1CCC[C@H]1C(=O)N[C@@H](C)C(=O)N[C@@H](CCCCN)C(=O)N[C@@H](CC(C)C)C(=O)N[C@@H](CCC(N)=O)C(=O)N1CCC[C@H]1C(=O)N[C@@H](CCCNC(=N)N)C(=O)O)C(C)C |  | chronic HFrEF patients non-paced | intravenous infusion, 0.1 µg/kg/min, 30 min after infusion end |  | heart rate | 71.8 ± 13.6 bpm |
| CC(=O)N[C@H](CC(=O)O)C(=O)N[C@H](Cc1c[nH]c2ccccc12)C(=O)N[C@H](Cc1ccccc1)C(=O)N[C@H](CCCCN)C(=O)N[C@H](C)C(=O)N[C@H](Cc1ccccc1)C(=O)N[C@H](Cc1ccc(O)cc1)C(=O)N[C@H](CC(=O)O)C(=O)N[C@H](CCCCN)C(=O)N[C@@H](C(=O)N[C@H](C)C(=O)N[C@H](CCC(=O)O)C(=O)N[C@H](CCCCN)C(=O)N[C@H](Cc1ccccc1)C(=O)N[C@H](CCCCN)C(=O)N[C@H](CCC(=O)O)C(=O)N[C@H](C)C(=O)N[C@H](Cc1ccccc1)C(N)=O)C(C)C |  | statin-treated high-risk CHD women, plasma | oral, 500 mg daily, day 13, 0 to 8 h, mean, all subjects |  | AUC(0-t) | 523 ng·h/mL |
| Nc1nccc(-c2cn(C3CC3)c3ccccc23)n1 | radio-HPLC, co-eluting peaks pooled | human male, feces | oral, 110 mg, 0 to 240 h, sample holds 81.99% dose | reference: sample radioactivity | share of radioactivity | 1.15% |
| O=C([O-])CN1CCN(CC(=O)[O-])CCN(CC(=O)NCC2CCC(C(=O)NC(Cc3ccc4ccccc4c3)C(=O)NCCCCC(NC(=O)NC(CCC(=O)O)C(=O)O)C(=O)O)CC2)CCN(CC(=O)[O-])CC1.[44Sc+3] (stereo not drawn) | transmetallation stability |  | 0.5 h, 37 °C, added: Ca2+ 10 mM |  | intact complex | 98% |
| Cc1ccc(-c2ccc(-c3cc4sccc4o3)cn2)nc1 |  | aqueous HEPES buffer | pH 7.4, zinc(II) complex |  | fluorescence lifetime | 3.29 ns |
| CN(C(=O)c1ccn2ncc(-c3ccc(C(N)=O)cc3)c2c1)c1ccc(C#N)cn1 |  | CD-1 mouse, Wistar rat, rhesus monkey, plasma | intravenous |  | Vss | 1.12 L/kg |
| N=C(N)NCCC[C@@H]1NC(=O)[C@H](Cc2c[nH]c3ccccc23)NC(=O)[C@@H](CC2CCCCC2)NC(=O)[C@@H]2CCCN2C(=O)[C@@H](NC(=O)CCc2ccccc2)CCCNC1=O |  | C57BL/6J mice, brain | subcutaneous, 1 mg/kg, two-compartment model |  | apparent peripheral volume (V2/F) | 0.07 µg/(ng/g) |
| CC(C)(O)c1ncc([S@](N)(=O)=NC(=O)Nc2c3c(cc4c2CCC4)CCC3)s1 |  | healthy human volunteers, plasma | oral, 100 mg once daily, day 14, spray-dried dispersion |  | dose-normalised AUC(0-tau) | 967 ng·h/mL/mg |
| [11CH3]c1ccc2nc(C3CCC3)n(-c3ccc4[nH]ncc4c3)c2n1 |  | human male, ovaries |  |  | absorbed radiation dose | 3.4 µSv/MBq |

Excerpt of the above:
| SMILES | test | test system | setting | scale | quantity | value |
| --- | --- | --- | --- | --- | --- | --- |
| CC(C)c1cnc(-c2cc(Cl)ccc2F)cc1Nc1ccncc1C(=O)NC(CO)CO | refers to: Myalgia | solid tumour patients | oral, dose not given, phase I monotherapy |  | treatment-related adverse events | 7.1% |
| CCCC(CCC)NC(=O)c1ccc(O)c(O)c1 | LC-MS | Sprague-Dawley rats, pooled sexes, plasma | oral, 200 mg/kg of parent drug, 1 h | reference: total peak area | metabolite peak area | 0.99% |
| Oc1cc2nc(c1)CNCCCNCCCNCCCNCCCNCCCNC2 | potentiometric titration | 0.15 M NaClO4 | 298.1 K, H5L5+ + H+ to H6L6+ |  | log K | 5.09 |
